Published values collected from several papers.
Parts stem from different laboratories: compare values within a part only.
Chain of UniProt P35916 (whole entry, looked up): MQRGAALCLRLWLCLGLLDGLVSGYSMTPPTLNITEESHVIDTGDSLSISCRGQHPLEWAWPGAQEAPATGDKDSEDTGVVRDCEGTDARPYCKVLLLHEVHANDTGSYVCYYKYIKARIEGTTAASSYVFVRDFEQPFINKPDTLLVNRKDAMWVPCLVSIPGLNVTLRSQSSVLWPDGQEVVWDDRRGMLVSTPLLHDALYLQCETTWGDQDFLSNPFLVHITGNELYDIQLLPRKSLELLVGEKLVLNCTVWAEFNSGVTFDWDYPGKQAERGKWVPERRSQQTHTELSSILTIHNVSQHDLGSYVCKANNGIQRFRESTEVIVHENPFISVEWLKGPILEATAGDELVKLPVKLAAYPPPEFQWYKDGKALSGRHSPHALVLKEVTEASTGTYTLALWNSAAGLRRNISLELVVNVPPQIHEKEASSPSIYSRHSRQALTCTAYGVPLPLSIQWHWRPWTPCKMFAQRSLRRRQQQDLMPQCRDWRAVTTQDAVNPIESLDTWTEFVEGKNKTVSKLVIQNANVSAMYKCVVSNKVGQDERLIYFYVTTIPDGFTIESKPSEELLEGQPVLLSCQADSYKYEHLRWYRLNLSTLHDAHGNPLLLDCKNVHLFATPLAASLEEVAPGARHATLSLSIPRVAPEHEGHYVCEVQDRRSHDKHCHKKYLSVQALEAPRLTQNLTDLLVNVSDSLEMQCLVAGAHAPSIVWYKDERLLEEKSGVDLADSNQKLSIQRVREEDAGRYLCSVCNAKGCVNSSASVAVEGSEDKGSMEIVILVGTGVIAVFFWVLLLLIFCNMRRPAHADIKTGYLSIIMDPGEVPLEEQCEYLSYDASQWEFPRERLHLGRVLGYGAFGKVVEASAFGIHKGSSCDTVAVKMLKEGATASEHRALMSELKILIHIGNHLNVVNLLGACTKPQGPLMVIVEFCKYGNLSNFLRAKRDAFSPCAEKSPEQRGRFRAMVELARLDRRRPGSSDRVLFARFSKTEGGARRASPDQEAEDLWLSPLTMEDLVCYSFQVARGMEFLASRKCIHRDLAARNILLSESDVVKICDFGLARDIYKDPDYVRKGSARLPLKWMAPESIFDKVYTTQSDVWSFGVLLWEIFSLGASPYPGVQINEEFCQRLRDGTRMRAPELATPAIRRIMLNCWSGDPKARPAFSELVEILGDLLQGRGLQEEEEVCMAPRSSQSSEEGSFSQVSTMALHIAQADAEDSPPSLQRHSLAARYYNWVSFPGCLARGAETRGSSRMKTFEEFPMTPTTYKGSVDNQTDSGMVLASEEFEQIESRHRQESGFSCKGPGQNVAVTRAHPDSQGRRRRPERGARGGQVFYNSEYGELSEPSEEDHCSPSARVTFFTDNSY
Chain of UniProt Q8N4C8 (whole entry, looked up): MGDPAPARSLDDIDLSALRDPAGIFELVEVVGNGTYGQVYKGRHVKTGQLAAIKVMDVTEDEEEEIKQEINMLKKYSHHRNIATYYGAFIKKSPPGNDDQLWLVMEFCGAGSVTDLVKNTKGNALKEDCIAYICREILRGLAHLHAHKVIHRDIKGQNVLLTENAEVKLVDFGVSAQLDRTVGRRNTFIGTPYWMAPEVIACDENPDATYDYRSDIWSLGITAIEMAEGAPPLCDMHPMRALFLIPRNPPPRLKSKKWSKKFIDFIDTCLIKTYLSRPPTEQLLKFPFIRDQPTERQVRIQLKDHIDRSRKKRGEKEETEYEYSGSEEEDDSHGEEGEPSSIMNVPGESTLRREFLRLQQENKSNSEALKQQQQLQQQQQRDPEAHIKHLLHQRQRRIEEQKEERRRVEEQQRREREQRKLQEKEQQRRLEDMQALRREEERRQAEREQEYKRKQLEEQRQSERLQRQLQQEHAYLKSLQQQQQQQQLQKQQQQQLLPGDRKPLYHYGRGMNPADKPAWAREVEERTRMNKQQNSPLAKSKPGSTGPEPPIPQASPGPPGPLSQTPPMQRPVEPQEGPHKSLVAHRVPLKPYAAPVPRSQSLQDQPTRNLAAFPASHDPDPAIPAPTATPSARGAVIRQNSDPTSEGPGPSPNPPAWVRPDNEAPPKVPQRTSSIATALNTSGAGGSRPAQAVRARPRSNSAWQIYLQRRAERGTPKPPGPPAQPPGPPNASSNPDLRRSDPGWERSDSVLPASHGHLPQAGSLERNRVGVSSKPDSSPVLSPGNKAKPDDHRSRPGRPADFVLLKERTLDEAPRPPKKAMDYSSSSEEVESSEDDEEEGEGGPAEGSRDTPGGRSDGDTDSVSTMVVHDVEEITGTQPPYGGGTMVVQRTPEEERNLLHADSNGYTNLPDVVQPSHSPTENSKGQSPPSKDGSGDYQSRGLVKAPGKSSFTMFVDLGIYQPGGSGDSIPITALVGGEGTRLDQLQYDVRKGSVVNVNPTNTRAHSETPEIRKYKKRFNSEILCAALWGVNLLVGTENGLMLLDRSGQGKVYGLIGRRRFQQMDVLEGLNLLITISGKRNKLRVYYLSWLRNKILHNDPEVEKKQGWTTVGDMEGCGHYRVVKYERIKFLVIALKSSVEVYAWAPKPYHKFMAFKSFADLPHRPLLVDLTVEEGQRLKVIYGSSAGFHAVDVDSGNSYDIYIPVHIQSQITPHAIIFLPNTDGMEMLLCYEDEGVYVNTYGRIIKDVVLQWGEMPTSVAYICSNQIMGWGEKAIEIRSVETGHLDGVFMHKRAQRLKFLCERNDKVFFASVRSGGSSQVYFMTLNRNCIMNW
Chain of UniProt P57078 (whole entry, looked up): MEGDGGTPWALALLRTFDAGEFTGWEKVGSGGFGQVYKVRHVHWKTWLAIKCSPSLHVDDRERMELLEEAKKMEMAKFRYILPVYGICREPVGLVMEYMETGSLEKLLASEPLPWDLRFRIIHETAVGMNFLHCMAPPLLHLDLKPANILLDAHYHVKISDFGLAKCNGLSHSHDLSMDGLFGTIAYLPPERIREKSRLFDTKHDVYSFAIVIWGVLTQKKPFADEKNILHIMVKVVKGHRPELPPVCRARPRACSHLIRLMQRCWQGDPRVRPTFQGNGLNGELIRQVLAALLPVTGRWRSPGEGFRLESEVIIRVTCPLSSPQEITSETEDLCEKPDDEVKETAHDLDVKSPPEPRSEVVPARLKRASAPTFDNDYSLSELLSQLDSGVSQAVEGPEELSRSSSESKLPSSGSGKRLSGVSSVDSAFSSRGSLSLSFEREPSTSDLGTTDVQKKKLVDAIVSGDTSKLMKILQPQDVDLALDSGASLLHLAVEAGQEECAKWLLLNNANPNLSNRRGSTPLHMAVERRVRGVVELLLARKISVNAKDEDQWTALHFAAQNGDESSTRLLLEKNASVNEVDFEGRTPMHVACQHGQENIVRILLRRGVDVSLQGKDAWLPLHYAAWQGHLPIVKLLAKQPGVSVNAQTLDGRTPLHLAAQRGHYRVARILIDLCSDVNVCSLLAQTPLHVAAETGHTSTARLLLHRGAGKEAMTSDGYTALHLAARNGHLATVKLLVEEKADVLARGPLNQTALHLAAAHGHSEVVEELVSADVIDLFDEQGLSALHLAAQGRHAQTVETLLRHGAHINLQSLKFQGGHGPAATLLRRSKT
Chain of UniProt Q16539 (whole entry, looked up): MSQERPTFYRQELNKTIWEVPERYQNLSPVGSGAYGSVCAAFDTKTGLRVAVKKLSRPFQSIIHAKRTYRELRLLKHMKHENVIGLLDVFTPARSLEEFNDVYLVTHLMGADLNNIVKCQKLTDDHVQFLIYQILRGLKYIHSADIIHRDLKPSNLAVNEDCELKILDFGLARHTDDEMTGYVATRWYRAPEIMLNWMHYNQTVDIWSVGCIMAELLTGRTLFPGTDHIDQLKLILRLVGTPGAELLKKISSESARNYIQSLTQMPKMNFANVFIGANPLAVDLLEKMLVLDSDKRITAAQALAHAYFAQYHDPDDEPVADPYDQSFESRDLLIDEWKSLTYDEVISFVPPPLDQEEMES
Chain of UniProt Q9H4B4 (whole entry, looked up): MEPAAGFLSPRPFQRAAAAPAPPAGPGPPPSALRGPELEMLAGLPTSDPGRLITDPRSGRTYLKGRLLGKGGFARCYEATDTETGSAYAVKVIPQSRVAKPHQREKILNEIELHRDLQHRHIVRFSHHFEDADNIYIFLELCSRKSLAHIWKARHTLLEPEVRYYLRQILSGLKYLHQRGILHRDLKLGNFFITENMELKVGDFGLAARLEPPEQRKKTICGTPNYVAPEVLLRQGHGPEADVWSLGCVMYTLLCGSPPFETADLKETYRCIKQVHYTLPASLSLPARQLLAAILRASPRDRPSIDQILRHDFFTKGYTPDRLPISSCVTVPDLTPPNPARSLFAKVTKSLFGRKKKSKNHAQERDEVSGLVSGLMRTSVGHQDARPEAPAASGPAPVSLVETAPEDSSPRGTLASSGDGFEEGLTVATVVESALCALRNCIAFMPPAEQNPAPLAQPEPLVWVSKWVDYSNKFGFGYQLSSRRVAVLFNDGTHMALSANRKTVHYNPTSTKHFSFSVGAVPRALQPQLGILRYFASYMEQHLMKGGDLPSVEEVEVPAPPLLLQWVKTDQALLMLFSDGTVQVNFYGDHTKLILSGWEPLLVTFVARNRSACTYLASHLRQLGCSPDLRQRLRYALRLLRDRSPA
Chain of UniProt P31751 (whole entry, looked up): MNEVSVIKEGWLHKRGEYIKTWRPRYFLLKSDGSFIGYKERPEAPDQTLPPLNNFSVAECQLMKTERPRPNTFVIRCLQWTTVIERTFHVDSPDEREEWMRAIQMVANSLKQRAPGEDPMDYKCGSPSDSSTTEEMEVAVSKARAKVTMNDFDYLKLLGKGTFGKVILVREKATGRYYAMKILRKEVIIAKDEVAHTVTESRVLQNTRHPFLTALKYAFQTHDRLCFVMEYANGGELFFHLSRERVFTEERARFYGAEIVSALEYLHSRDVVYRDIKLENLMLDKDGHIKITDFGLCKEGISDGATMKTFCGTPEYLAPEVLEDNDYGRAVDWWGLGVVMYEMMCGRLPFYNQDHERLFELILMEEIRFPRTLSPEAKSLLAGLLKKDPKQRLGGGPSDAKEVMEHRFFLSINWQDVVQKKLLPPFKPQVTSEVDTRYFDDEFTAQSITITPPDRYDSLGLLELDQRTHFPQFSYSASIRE

Sample 1
Cell line: mouse MPNST tumor cells
Method: high-content nuclear imaging
Measured: cell number
Concentration: 10 µM
Time: 12 h
Notes: mean of 2 replicates
Baseline: plate mean
Direction: higher = more cells
| Compound | nuclei count [z-score] |
| --- | --- |
| CC(C)(C)NCC(O)c1cc(O)cc(O)c1 (centres unmarked) | -0.0551 |
| C#C[C@]1(OC(C)=O)CC[C@H]2[C@@H]3CCC4=CC(=NO)CC[C@@H]4[C@H]3CC[C@@]21CC (mixture of isomers) | 0.234 |
| CC1=C(CC(=O)O)c2cc(F)ccc2/C1=C\c1ccc([S+](C)[O-])cc1 (centres unmarked) | -1.71 |
| COc1ccc2[nH]c([S+]([O-])Cc3ncc(C)c(OC)c3C)nc2n1 (centres unmarked) | 1.49 |
| Oc1ccc(C2CNCCc3c2cc(O)c(O)c3Cl)cc1 (centres unmarked) | 2.77 |

Sample 2
Structure (SMILES): c1ccc(N2CCN(Cc3nc4ccccc4[nH]3)CC2)nc1
Method: competition with immobilised ligand
Concentration: 1 µM
| target | read-out | remaining binding |
| --- | --- | --- |
| FLT4 (Homo sapiens, UniProt P35916) | cell-free assay | 100% |
| OXSR1 (Homo sapiens, UniProt O95747) | binding | 100% |
| NUAK2 (Homo sapiens, UniProt Q9H093) | binding | 100% |
| SBK3 (Homo sapiens, UniProt P0C264) | binding | 100% |
| ALK (Homo sapiens, UniProt Q9UM73) | cell-free assay | 91% |
| RIPK4 (Homo sapiens, UniProt P57078) | binding | 100% |
| RET (Homo sapiens, UniProt P07949, V804M) | cell-free assay | 100% |

Sample 3
Cell line: HaCaT
Concentration: 100 µM
Time: 18 h
| Structure (SMILES) | viability [%] |
| --- | --- |
| CCOC(=O)C1=C(C)NC(C)=C(C(=O)OCC)C1c1ccccc1/C=C/C(=O)OC(C)(C)C | 18.3 |
| CC(=O)CCCCn1c(=O)c2c(ncn2C)n(C)c1=O | 77 |
| N=c1ccn2c(n1)O[C@H]1[C@H](O)[C@@H](CO)O[C@H]12 | 112 |
| Nc1cccc2c1CN(C1CCC(=O)NC1=O)C2=O (centres unmarked) | 99.8 |

Sample 4
Compound: CC(=O)O/N=C1/C(c2c(O)[nH]c3cc(Br)ccc23)=Nc2ccccc21
Read-out: enzyme activity
Action: inhibitor
Concentration: 0.5 µM
Baseline: control
| target | remaining activity [%] |
| --- | --- |
| MAPK14 (Homo sapiens, UniProt Q16539) | 99.2 |
| CDC42BPB (Homo sapiens, UniProt Q9Y5S2) | 94.7 |
| MARK2 (Homo sapiens, UniProt Q7KZI7) | 74.9 |
| AKT2 (Homo sapiens, UniProt P31751) | 113 |
| CLK4 (Homo sapiens, UniProt Q9HAZ1) | 94.1 |
| PLK3 (Homo sapiens, UniProt Q9H4B4) | 96.2 |
| MAP2K1 (Homo sapiens, UniProt Q02750) | 84.9 |
| RPS6KA4 (Homo sapiens, UniProt O75676) | 97.6 |
| KDR (Homo sapiens, UniProt P35968) | 74.2 |
| MINK1 (Homo sapiens, UniProt Q8N4C8) | 76.1 |
| NEK3 (Homo sapiens, UniProt P51956) | 130 |
| MAPK1 (Homo sapiens, UniProt P28482) | 87.9 |
| PRKG2 (Homo sapiens, UniProt Q13237) | 91.4 |

A few entries again (sample 4):
| target | remaining activity [%] |
| --- | --- |
| MINK1 (Homo sapiens, UniProt Q8N4C8) | 76.1 |
| NEK3 (Homo sapiens, UniProt P51956) | 130 |
| MAPK1 (Homo sapiens, UniProt P28482) | 87.9 |
| PRKG2 (Homo sapiens, UniProt Q13237) | 91.4 |
